Experimental data pooled from the literature.
Each line is one published result; not all experiments were run side by side. Numbers after ± are the reported error.

CN1CCCNC(=O)c2cccc(c2)C(=O)NCCCN(C)CCCNc2cccc3c2C(=O)c2cccc(c2C3=O)NCCC1
log2 fold change (SAS; RNA-Seq, item: SLC26A11 mRNA; 1 µM, 6 h; reference: untreated cells): 3.44

Nc1ncc(-c2cc(-c3cnn(CC(F)(F)F)c3)ncc2F)nc1C(=O)NC1CNCC(F)C1 (stereo not shown)
remaining binding (ULK2; KINOMEscan; 1 µM; reference: DMSO control): 67%

CNS(=O)(=O)Nc1nccc(Cc2c(C)c3ccc(Oc4ncccc4F)cc3oc2=O)c1F
IC50 (NCI-H1793; cell viability; 7 days): > 1 µM

Cc1ncsc1-c1ccc(C(C)NC(=O)C2CC(O)CN2C(=O)C(NC(=O)CCCCCCCCCCN2CCCC(Nc3ncc(Cl)c(Nc4ccccc4S(=O)(=O)C(C)C)n3)C2)C(C)(C)C)cc1 (stereo not shown)
log2 fold change (22Rv1; RNA-seq, item: ZNF737 mRNA; concentration not given; reference: DMSO): -1.33

C[n+]1cccc2cc(/C=N/NC(=O)c3cccc(C(=O)N/N=C/c4ccc5c(ccc[n+]5C)c4)c3)ccc21
ΔTm (myc22 MYC G4-DNA parallel; FRET melting; 1 µM, K1 buffer, DNA 0.2 µM): 5.8 ± 0.4 °C

COc1cc(O)ccc1CCC(c1ccc(O)cc1)c1cc2c(c(C)c1O)OC(c1ccc(O)cc1)CC2 (mixture of isomers)
DHA level (human blood; 1 µM, with: A23187): 127000 ± 31700 pg/mL

CC[n+]1cccc2cc(/C=N/NC(=O)N/N=C/c3ccc4c(ccc[n+]4CC)c3)ccc21
ΔTm (myc22 MYC G4-DNA parallel; FRET melting; 1 µM, K1 buffer, DNA 0.2 µM, with: ds26 10 µM): 4.3 ± 0.3 °C

C=CC(=O)Nc1cccc(Cn2ncc3cnc(Nc4cnn(CCOC)c4)nc32)c1
percent of control (CDK4 human; binding, KINOMEscan; 100 nM; lower = stronger binding): 97%

COC1CN([C@H]2CC[C@H]([C@@]3(C)Oc4c(Cl)cc(C(=O)NCc5c(SC)cc(C)[nH]c5=O)c(C)c4O3)CC2)C1
log2 fold change (RNA-seq, item: TRPV4; human, whole blood; dose not given, 24 h; reference: pretreatment baseline): 2.39

C[n+]1cc(/C=N/NC(=O)c2ccc3ccc(C(=O)N/N=C/c4cc5ccccc5[n+](C)c4)nc3n2)cc2ccccc21
ΔTm (myc22 MYC G4-DNA parallel; FRET melting; 1 µM, K1 buffer, DNA 0.2 µM, with: ds26 10 µM): 15.5 ± 0.4 °C

A few entries again:
CN1CCCNC(=O)c2cccc(c2)C(=O)NCCCN(C)CCCNc2cccc3c2C(=O)c2cccc(c2C3=O)NCCC1
log2 fold change (SAS; RNA-Seq, item: SLC26A11 mRNA; 1 µM, 6 h; reference: untreated cells): 3.44
